Measurements pooled from the literature.
Lines come from different studies, so protocols differ. “And” joins repeats or separate records; there may be more than shown. ± marks the error that the study gave.

CC(=O)O[C@H]1CC[C@@]2(C)[C@H](CC[C@@H]3[C@@H]2CC[C@]2(C)[C@@H](C4=CC(=O)OC4)[C@@H](OC(C)=O)C[C@]32O)C1  EC50 (iPSC-derived cardiomyocytes; concentration-response curve, refers to: MyBP-C protein level; 24 h): 4.7 µM
O=S(=O)(c1ccc(O)cc1)c1ccc(O)cc1  spheroid area increase (HepG2 spheroids; planimetry; 10 µM, 0 to 96 h; reference: mean area of 72 h spheroids): 196%
Cc1cnc2ccc3c(nc(N)n3C)c2n1  colony number (BALB/c 3T3; colony forming efficiency; 5 µM): 86 colonies per plate and 101 colonies per plate and 91 colonies per plate
N.N.[Cl][Pt][Cl]  inhibition (Jurkat E6-1; cell proliferation, CellTiter-Glo; 10 µM, 72 h): 100%
Oc1cc(Cl)ccc1Oc1ccc(Cl)cc1Cl  point of departure (HepG2; high content imaging, refers to: DNA structure; 24 h, representative mode): 17 µM
C[C@]12CC[C@H](O)C[C@H]1CC[C@@H]1[C@@H]2CC[C@]2(C)[C@@H](C3=CC(=O)OC3)[C@@H](O)C[C@]12O  EC50 (MYBPC3 mutant iPSC-derived cardiomyocytes; refers to: MyBP-C/MYH ratio; 24 h): inactive
CC(C)N1CCC(NC2CCN(c3cccc(-c4cc5cc(F)ccc5[nH]4)c3)CC2)CC1  CC50 (SNB-75): 5.51 µM
CC(C)[C@H](N)C(=O)N1CCC[C@H]1B(O)O  IL-1beta release (Ker-CT keratinocytes, NLRP1 knockout; inducer, ELISA; concentration not given, compound alone): 6.71 pg/mL and 0.479 pg/mL and 0 pg/mL
Oc1ccc(C(c2ccc(O)cc2)(C(F)(F)F)C(F)(F)F)cc1  G2 phase cells (HepG2 spheroids; Hoechst flow cytometry; 0.10 µM, 96 h): 20.5 ± 4.47%
CN1CCN(C2(CNC3CCN(c4cccc(-c5cc6cc(F)ccc6[nH]5)c4)CC3)CCC2)CC1  GI50 (SNB-75): 1.49 µM
Cc1n[nH]c2ccc(-c3cncc(OC[C@@H](N)Cc4c[nH]c5ccccc45)c3)cc12  cell growth (SNU-1040; 330 nM, 3 days, 100% DMSO; reference: vehicle): 78.6%
COC(=O)/C(C)=C\C[C@@]12OC(C)(C)[C@@H]3C[C@@H](C=C4C(=O)c5c(O)c6c(c(CC=C(C)C)c5O[C@]431)O[C@](C)(CCC=C(C)C)C=C6)C2=O  EC50 (iPSC-derived cardiomyocytes; concentration-response curve, refers to: MyBP-C/MYH ratio; 24 h): 8.4 µM
Nc1ncnc2c1ncn2[C@@H]1O[C@@H]2COP(=O)(O)O[C@H]3[C@@H](O)[C@H](n4cnc5c(=O)[nH]cnc54)O[C@@H]3COP(=O)(O)O[C@H]2[C@H]1O  fold enrichment (HFF-1; RNA sequencing, refers to: Reactome DDX58/IFIH1 IFN-α/β induction; upregulated pathways; reference: mock): 7.39
C[C@@H]1O[C@@H](O[C@H]2C[C@@H](O)[C@]3(CO)[C@H]4[C@H](O)C[C@]5(C)[C@@H](C6=CC(=O)OC6)CC[C@]5(O)[C@@H]4CC[C@]3(O)C2)[C@H](O)[C@H](O)[C@H]1O  fitted bottom MyBP-C/MYH ratio (iPSC-derived cardiomyocytes; concentration-response fit; reference: vehicle): 37.6%
O=C(Nc1ccc2[nH]nc(-c3ccncc3)c2c1)[C@@H]1CCN(CC(=O)N2CCN(c3ccc(-c4ncccn4)cc3)CC2)C1  PI-positive cells (HCT116; IncuCyte; concentration not given, 4 (unit not given)): 4.42 count and 3.17 count and 2.08 count
COC(=O)C1CCN(C(=O)c2ccc(N(C)Cc3cnc4nc(N)nc(N)c4n3)cc2)CC1  mitochondrial toxicity (786-O; high-content imaging, refers to: MitoTracker Red uptake; 10 µM): -6.44 ± 4.96%
Nc1ncc(-c2nc(N3CCOCC3)nc(N3CCOCC3)n2)c(C(F)F)n1  GI50 (SR; 72 h): 0.176 µM
CC[C@H](C)[C@@H]([C@@H](CC(=O)N1CCC[C@H]1[C@H](OC)[C@@H](C)C(=O)N[C@@H](Cc1ccccc1)C(=O)O)OC)N(C)C(=O)[C@@H](NC(=O)[C@H](C(C)C)N(C)C(=O)CCSSC[C@H](NC(=O)[C@@H](NC(=O)CNC(=O)[C@H](CCC(=O)O)NC(=O)[C@H](CC(=O)O)NC(=O)[C@H](C)NC(=O)[C@H](CC(=O)O)NC(=O)[C@@H](NC(=O)[C@H](CC(C)C)NC(=O)[C@H](CC(C)C)NC(=O)[C@H](C)NC(=O)[C@H](CC(C)C)NC(=O)[C@H](CCCC(=O)O)NC(=O)[C@H](CC(C)C)NC(=O)[C@H](CC(C)C)NC(=O)[C@H](CC(C)C)NC(=O)[C@H](CC(C)C)NC(=O)[C@@H]1CCCN1C(=O)[C@@H](NC(=O)[C@@H](NC(=O)[C@H](Cc1ccccc1)NC(=O)[C@H](CC(C)C)NC(=O)[C@H](Cc1c[nH]c2ccccc12)NC(=O)[C@H](CC(C(=O)O)C(=O)O)NC(=O)[C@H](C)NC(=O)[C@H](Cc1ccc(O)cc1)NC(=O)[C@H](CCCNC(=N)N)NC(=O)[C@H](C)NC(=O)[C@H](Cc1c[nH]c2ccccc12)NC(=O)[C@H](Cc1ccc(O)cc1)NC(=O)[C@@H](NC(=O)[C@@H]1CCCN1C(=O)[C@H](CC(N)=O)NC(=O)[C@H](CCC(N)=O)NC(=O)[C@H](CCC(=O)O)NC(=O)[C@H](C)NC(=O)[C@H](C)N)[C@@H](C)CC)[C@@H](C)O)[C@@H](C)O)C(C)C)[C@@H](C)O)C(=O)NCC(N)=O)C(C)C  cell killing (HeLa; MTT; 40 nM, 72 h, 2 h low pH treatment): ~27%
COc1cc(CCC[P+](c2ccccc2)(c2ccccc2)c2ccccc2)c(OC)c2c1OCO2.[I-]  TGI (SR; SRB): -4.87 log M
Cc1nn(-c2nc3c(F)cc(F)cc3s2)c(O)c1C(c1ccc(C(F)(F)F)cc1)c1c(C)nn(-c2nc3c(F)cc(F)cc3s2)c1O  viability (RAW-ISG; CCK-8; 25 µM): 103% and 102% and 82.1% and 85.7% and 88.9%
Cn1nccc1Nc1nccc(-c2ccn([C@H](CO)c3ccc(Cl)c(F)c3)c(=O)c2)n1  PI-positive cells (HCT116; IncuCyte; concentration not given, 4 (unit not given)): 2.58 count and 2 count
COc1ccc2c(c1)[nH]c1c(C)nccc12  methylation reduction (DU-145; bisulfite pyrosequencing, refers to: RASSF1A promoter CpG site 10; concentration not given; reference: vehicle): 3.44%
N#Cc1c(N)nc(SCC(N)=O)c(C#N)c1-c1ccc(OCC2CC2)cc1  ERK1/2 activation (H9c2; agonist; concentration not given, 5 min): 16 % above basal
CO[C@H]1/C=C\C=C(/C)C(=O)NC2=CC(=O)C(NCCN(C)C)=C(C[C@@H](C)C[C@H](OC)[C@H](O)[C@@H](C)/C=C(\C)[C@@H]1OC(N)=O)C2=O  fitted bottom MyBP-C/MYH ratio (iPSC-derived cardiomyocytes; concentration-response fit; reference: vehicle): 41.2%
O=S(=O)(Nc1ccc(-c2nc3cc(NS(=O)(=O)c4ccc(Br)cc4)ccc3o2)cc1)c1ccc(Br)cc1  EC50 (DLD-1 colorectal cancer; 48 h): 16 µM
COc1c(C)c2c(c(O)c1C/C=C(\C)CCC(=O)O)C(=O)OC2  IC50 (NCI-H82; cell proliferation; lung cancer): 0.759 µM
CC(c1ccccc1)(c1ccc(O)cc1)c1ccc(O)cc1  S phase cells (HepG2 spheroids; Hoechst flow cytometry; 1 µM, 24 h): 9.53 ± 1.12%
OCCN1CCN(CC/C=C2/c3ccccc3Sc3ccc(C(F)(F)F)cc32)CC1  IC50 (Plasmodium falciparum; D10): 7.94 µM
CC(C)CN(C[C@@H](O)[C@H](Cc1ccccc1)NC(=O)O[C@H]1CO[C@H]2OCC[C@H]21)S(=O)(=O)c1ccc(N)cc1  maximal efficacy (ΔE-expressing cells; ΔE mislocalization, high-content imaging): inactive
CCN(CC)c1ccc(C=NNC(=O)CSc2nc3ccccc3c(=O)n2Cc2ccc(S(N)(=O)=O)cc2)c(O)c1  CC50 (SK-OV-3; NCI five-dose screen): > 100 µM
Cc1ccc2c(c1)C(=O)C1(O)CCN(c3ccccc3)C1=N2 (centres unmarked)  EC50 (A2058; cell motility, Boyden chamber; with: autotaxin 50 nM): 54 µM
CC[C@@]1(O)C(=O)OCc2c1cc1n(c2=O)Cc2cc3ccccc3nc2-1  inhibition (BT-12; cell viability, MTT; 10 µM, 72 h): 96.2%
N=C(N)NC(=O)Cc1c(Cl)cccc1Cl  IC50 (Plasmodium falciparum; GB4): 3.98 µM
C/C=C(/C)C(=O)O[C@H]1C(C)=C2[C@H]([C@@H]1OC(=O)CCCCCCC)[C@@](C)(OC(C)=O)C[C@H](OC(=O)CCC)[C@@]1(O)[C@H]2OC(=O)[C@@]1(C)O  normalized enrichment score (HEK-293T; RNA-seq GSEA, refers to: Hallmark apical surface; 500 nM, 6 h; direction not given): -1.3
CC[C@H]1CN2CCc3cc(OC)c(OC)cc3[C@@H]2C[C@@H]1C[C@H]1NCCc2cc(OC)c(OC)cc21.Cl.Cl  efficacy (C127 LDR GFP reporter cells; silenced GFP reporter induction, activator, high-content imaging; retest, two-run mean): 51%
N.N.[Cl][Pt][Cl]  cells in S phase (NCI-H82; PI flow cytometry; 10 µM, 24 h): 37%
COc1c(CCC[P+](c2ccccc2)(c2ccccc2)c2ccccc2)cc2c(c1OC)OCO2.[I-]  mean Log10LC50 (NCI60 panel; SRB): -4.14 log M
COc1ccc([C@H]2c3[nH]c4ccc(Cl)cc4c3CCN2C(=O)Oc2ccc(Cl)cc2)cc1  inhibition (human dermal fibroblasts with PBMC; cytokine secretion, refers to: sIL-6; 0.001 µM, 48 h): 33%

Some of these lines once more:
Cc1ccc2c(c1)C(=O)C1(O)CCN(c3ccccc3)C1=N2 (centres unmarked)  EC50 (A2058; cell motility, Boyden chamber; with: autotaxin 50 nM): 54 µM
CC[C@@]1(O)C(=O)OCc2c1cc1n(c2=O)Cc2cc3ccccc3nc2-1  inhibition (BT-12; cell viability, MTT; 10 µM, 72 h): 96.2%
N=C(N)NC(=O)Cc1c(Cl)cccc1Cl  IC50 (Plasmodium falciparum; GB4): 3.98 µM
C/C=C(/C)C(=O)O[C@H]1C(C)=C2[C@H]([C@@H]1OC(=O)CCCCCCC)[C@@](C)(OC(C)=O)C[C@H](OC(=O)CCC)[C@@]1(O)[C@H]2OC(=O)[C@@]1(C)O  normalized enrichment score (HEK-293T; RNA-seq GSEA, refers to: Hallmark apical surface; 500 nM, 6 h; direction not given): -1.3
CC[C@H]1CN2CCc3cc(OC)c(OC)cc3[C@@H]2C[C@@H]1C[C@H]1NCCc2cc(OC)c(OC)cc21.Cl.Cl  efficacy (C127 LDR GFP reporter cells; silenced GFP reporter induction, activator, high-content imaging; retest, two-run mean): 51%
